Experimental data pooled from the literature.
Parts stem from different laboratories: compare values within a part only.

Sample 1 — technique: RNA Bind-n-Seq; form: RNA; medium: in vitro; tested at: 1 µM; notes: whole 134-nt RNA, ends assumed; together with: 150 mM KCl; relative to: input library; direction: higher = stronger binding
Target: Ras GTPase-activating protein-binding protein 1, C-terminal RGG region (G3BP1, Homo sapiens, UniProt Q13283)
Sequence of UniProt Q13283 (whole entry, looked up): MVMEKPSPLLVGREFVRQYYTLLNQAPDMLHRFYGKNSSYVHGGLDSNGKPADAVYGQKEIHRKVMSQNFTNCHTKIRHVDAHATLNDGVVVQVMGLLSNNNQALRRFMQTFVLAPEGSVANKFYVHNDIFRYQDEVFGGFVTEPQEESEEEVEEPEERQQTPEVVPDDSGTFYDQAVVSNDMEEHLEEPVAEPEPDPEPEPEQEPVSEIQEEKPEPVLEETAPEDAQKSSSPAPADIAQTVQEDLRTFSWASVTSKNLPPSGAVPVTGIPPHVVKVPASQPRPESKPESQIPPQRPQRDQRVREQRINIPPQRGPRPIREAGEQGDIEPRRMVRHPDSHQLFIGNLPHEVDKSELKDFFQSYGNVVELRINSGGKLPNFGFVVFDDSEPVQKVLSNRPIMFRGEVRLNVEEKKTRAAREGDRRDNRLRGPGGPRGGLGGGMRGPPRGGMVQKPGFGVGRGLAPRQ
| Sequence | log2 enrichment |
| --- | --- |
| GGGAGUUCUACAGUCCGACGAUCGCAGGAAGUAAAAACAAAUGGAAAUGCUUCGGAUAGUGGCAGGGGUGGGGGUUCCUAAGGAAAGGGUGGGAUGGGAGUGGGUAAAGAGUUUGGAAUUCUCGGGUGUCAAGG | 1.08 |
| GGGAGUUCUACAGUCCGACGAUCCCUCAAGUCCUGUGCUACACAUCGUAUGUACCGAAUCGGGCGGGGCGGGCGGAAAGUAUUAUGUUACGCCGUUCGGAUCUGCACUUCCAGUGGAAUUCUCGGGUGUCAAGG | 0.568 |
| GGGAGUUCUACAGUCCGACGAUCUCCCUAUUCCAGUCAUACACGUGGACCUAACUGCACCAGUAGCUUUUCUGAGAAUACUUGCUGAAAAGGAAGUUUUCUGGAAUGGGUAAGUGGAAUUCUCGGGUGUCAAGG | -0.679 |
| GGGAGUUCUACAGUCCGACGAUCCCUGUGCUACACAUCGUAUGUACCGAAUCGGGGAAAAAGGGGAAAAAGGGGAAAAAGGGGAAAGUAUUAUGUUACGCCGUUCGGAUCUGCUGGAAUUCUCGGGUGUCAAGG | 0.436 |
| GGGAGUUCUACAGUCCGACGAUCAAGUCCUGUGCUACACAUCGUAUGUACCGAAUCGGUGGAAAAAAAGGUUUUUUUGGAAAGUAUUAUGUUACGCCGUUCGGAUCUGCACUUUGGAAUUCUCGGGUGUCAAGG | -2.32 |
| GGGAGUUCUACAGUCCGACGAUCAACAGACAACACGCACCCACACAGACACAGAGGGAAGGGGUUGGGAUGGGGACAGGGUGCACAGCAGGGCGGGGUAGGACCCCAGCCCCUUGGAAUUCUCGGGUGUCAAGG | -0.35 |
| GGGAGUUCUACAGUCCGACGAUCCUCAAGUCCUGUGCUACACAUCGUAUGUACCGAAUCGGGUGGGUGGGGUGGGGAAAGUAUUAUGUUACGCCGUUCGGAUCUGCACUUCCAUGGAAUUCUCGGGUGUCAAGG | 1.36 |
| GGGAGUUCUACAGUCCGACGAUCCCUGUGCUACACAUCGUAUGUACCGAAUCGGGGAAAAAAGGGGAAAAAAGGAAAAAAGGGGAAAGUAUUAUGUUACGCCGUUCGGAUCUGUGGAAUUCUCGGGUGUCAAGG | -1.51 |
| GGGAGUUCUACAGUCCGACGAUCAGUCCUGUGCUACACAUCGUAUGUACCGAAUCGGGCCCCGGGGCCCCGGGCCCCGGGAAAGUAUUAUGUUACGCCGUUCGGAUCUGCACUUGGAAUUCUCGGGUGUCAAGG | -2.83 |
| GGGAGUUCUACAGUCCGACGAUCCCUCAAGUCCUGUGCUACACAUCGUAUGUACCGAAUCGGUGGGGUGGGGUGGAAAGUAUUAUGUUACGCCGUUCGGAUCUGCACUUCCAGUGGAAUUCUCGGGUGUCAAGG | -0.339 |

Sample 2 — technique: protein binding microarray; form: double-stranded DNA, one strand shown; medium: in vitro; tested at: not given; relative to: not given; direction: higher = stronger binding
Target: Histone acetyltransferase KAT6A, winged helix 2, GST fusion (KAT6A, Homo sapiens, UniProt Q92794, residues 85-181)
Notes: 8-mer, flanks averaged, mean of 2 arrays, mostly near background
Target sequence (chain): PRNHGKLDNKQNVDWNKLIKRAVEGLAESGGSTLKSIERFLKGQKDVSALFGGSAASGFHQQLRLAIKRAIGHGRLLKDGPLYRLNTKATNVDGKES
| Sequence | E-score |
| --- | --- |
| CTCCTATC | -0.059 |
| ACAGGCAA | 0.0209 |
| CGAATATA | -0.0297 |
| ACAGATCC | 0.0266 |
| GACAGAAA | 0.165 |
| AATAGGGC | -0.0417 |
| CAGAAGCA | 0.0442 |
| CATGGTAA | -0.154 |
| CAGCAAAG | 0.121 |
| ATTCGACG | 0.0246 |
| AATGGTAA | -0.0151 |
| TGGTCGAA | -0.115 |
| AATAGAGG | -0.0788 |
| AAAATCTG | 0.133 |
| GCGGGGAA | 0.104 |
| ACGCTGTG | 0.162 |
| ACCTTGGG | 0.0767 |
| AGCGACCA | 0.0225 |
| CCCTCTCG | 0.0398 |
| CGGAAACG | -0.0681 |
| GTGCGAAA | 0.00792 |
| TCTAACCA | -0.0391 |
| CTAGTACA | -0.123 |
| GGTTATCA | -0.0426 |
| CGAAGGCA | 0.128 |

Sample 3 — technique: EMSA with sequencing; form: double-stranded DNA, one strand shown; medium: in vitro; tested at: 10 and 20 nM; relative to: negative control set to 0; direction: higher = stronger binding
Target: Hepatocyte nuclear factor 3-alpha (Foxa1, Mus musculus, UniProt P35582, residues 1-468, full length assumed)
Sequence of UniProt P35582 (whole entry, looked up): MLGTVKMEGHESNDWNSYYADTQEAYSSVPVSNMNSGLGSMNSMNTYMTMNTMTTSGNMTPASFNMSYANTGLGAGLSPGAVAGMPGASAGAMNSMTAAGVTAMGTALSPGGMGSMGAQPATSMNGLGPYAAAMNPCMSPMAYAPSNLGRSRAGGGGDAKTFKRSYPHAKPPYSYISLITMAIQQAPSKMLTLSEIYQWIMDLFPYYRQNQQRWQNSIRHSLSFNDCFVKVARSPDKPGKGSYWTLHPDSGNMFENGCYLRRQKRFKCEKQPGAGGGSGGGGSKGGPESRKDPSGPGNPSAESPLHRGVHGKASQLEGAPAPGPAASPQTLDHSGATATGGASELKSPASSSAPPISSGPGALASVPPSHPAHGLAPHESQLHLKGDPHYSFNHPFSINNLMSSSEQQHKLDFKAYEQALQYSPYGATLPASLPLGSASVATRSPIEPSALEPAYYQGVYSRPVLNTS
Notes: whole designed probe, mean of two concentrations, ends assumed
| Sequence | normalised bound fraction |
| --- | --- |
| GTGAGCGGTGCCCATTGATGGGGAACGTAGGCCTCTGCTGGTCCTGTCAACTCGTCCTGGCGGCACAGAAGCTGCCAACGGTACGTCAGTGAGTTACCTTGGCCGTGTTCCAGTGAAACTGTTTACACAGGCAGGACGAAGTGACTGTGGTGATGGTTGCGTAACTCTGTGAACACACTGGAAACCATTGAATGTGTGTACTTGATCTGAATTGCGTGGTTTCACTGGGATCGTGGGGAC | 0.389 ratio |
| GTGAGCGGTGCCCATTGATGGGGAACTTATTGCTACAGATATTTTACAATTAGTATTTCTATGTAAGCACATAGGCTATTATCAAGGACAATTTATTTAGCACTTATTTTGAAATTATATGTAAACATGCAAACAAATAAGAACCCAAGAGTATAAACTCTATGACAAAAGTCAGTATGCAAGCATTAAGAACTCTTTCAGAAATGTGTATTTAAAATGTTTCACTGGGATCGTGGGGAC | 0.37 ratio |
| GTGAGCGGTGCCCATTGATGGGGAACTCATGAGATTGAAATTACTTTTGTTAAGTGTAATCTCTTCACAAAAGTGTTGAGATTACTTTTGTTAAGTGTAATCTCTTCACAAAAGTGTTGAGATTACTTTTGTTAAGTGTAATCTCTTCACAAAAGTGTTGAGATTACTTTTAAGTGTAATCTCTTCTTTTGTAATACTCTTTTGTAGTATTTTTCAACTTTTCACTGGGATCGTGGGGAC | 0.0251 ratio |
| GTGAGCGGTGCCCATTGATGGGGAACTCTAGATTCTTTTCCTTAATCTGTAAATCCTCACAATCTTCCTGTTTTCTCTTCTCCCTATGATCCACTGTGCCCTAAATACCAATGTATTTATGTTTACAGTAAAATTACGATATCTTAGTCATCCTAACTTGGCCAAACAGAAAAATTTATATACATTTGTTATATTTATATAGCCTCTCTCATTTATCTGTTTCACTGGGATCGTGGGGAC | 0.2 ratio |
| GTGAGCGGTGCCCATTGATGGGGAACATCTTCCCCCTCTTCCTTGCCCCACCAGCTCACCTTCCCGGGTATATTGGAGATAGGAAATTAATATAAGCCGGCATTCGTTAACCCTCTTCTGGCGCAAACTGCACATTGGTCTGGATCTAACATGGTCCTTTGGCGACGCCAGGCTCCGGGAGAGCAAAGCACCGTGTCAGGGCCATGATCCGGGGTGGCCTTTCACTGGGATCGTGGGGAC | 0.0275 ratio |
| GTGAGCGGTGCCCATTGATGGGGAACGGCTCCAAACGGCTGAATCAGCATTTTCAGAAACAAAGTGTTCTAGGCCTGGCCTTTTAAACAGCAGCAACGTTGTGCAATGAGCAAAACGCATATTTACTCACGAGCTCTCCTTGTTTTGGTCTTTCCCCCCTCCCCCCCATCTCTTGAATGAAACTGGGCACCAAGTTTGCAAGAAAATATTCTTTCAAACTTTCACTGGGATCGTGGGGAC | 0.122 ratio |
| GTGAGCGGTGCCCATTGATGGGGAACGTCATTTATTTCATGTTGTCCTGAGATTGGATCTAAACTTTGAGCTCCTAATCATCGCTCAGATTGTGTGGCCTCGTAAGATTGTGCGTAATAAGTAATCTAGCATCTGTACACTTGTTAACTTAATGAGCTTCTGTATGTGACACTTTAAGCCTTTTTAAAAATTAAGTGCTGGGCTATGCTTGGTGTCTCATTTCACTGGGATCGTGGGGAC | -0.0411 ratio |
| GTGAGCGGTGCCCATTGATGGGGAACTGGCAGAGCCAAGTTTACCAGTGTGTTGGCAGGAGTTACTGTTCCTTCTTGTGTGATTTCTTTGAGGACATTGCACTGTTTATACAGAGAGTGTAAACATAGCTGTTGATTTAACTAAACACTGTTTTTTGTTCCCCGTCTCTCACAGCCATGGTAAATAGCCTAATATTTAAGCTCAGAGGCTTTGATGTGATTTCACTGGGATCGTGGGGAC | 0.379 ratio |

Sample 4 — technique: RNAcompete; form: RNA; medium: in vitro; tested at: 20 nM; notes: 7-mer, probes averaged, single round; relative to: mean of 7-mers; direction: higher = stronger binding
Target: PABPC1L2, full length, GST fusion (mouse, UniProt A0ABA7IW68)
Construct (chain): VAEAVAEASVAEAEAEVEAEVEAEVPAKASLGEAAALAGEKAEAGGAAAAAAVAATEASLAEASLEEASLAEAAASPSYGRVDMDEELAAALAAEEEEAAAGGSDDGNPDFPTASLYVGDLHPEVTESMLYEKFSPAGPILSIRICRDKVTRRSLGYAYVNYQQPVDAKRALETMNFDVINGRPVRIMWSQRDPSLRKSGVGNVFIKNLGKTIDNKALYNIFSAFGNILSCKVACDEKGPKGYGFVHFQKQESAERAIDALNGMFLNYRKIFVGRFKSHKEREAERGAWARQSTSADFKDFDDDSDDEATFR
| Sequence | 7-mer Z-score |
| --- | --- |
| UGUCGUC | -0.518 |
| CGACGGG | -0.0536 |
| AGAACGG | 0.075 |
| ACUAGUA | -0.0989 |
| GCCCGGC | -0.315 |
| AUCAUAA | 0.454 |
| UGAAUCG | -0.226 |
| GAAAGGC | 0.262 |
| GCUGCCG | -0.184 |
| GUGCCUC | -0.193 |
| GAUGCCG | -0.222 |
| GGCUCUA | 0.207 |
| ACUCGAU | -0.186 |
| GCGGGUC | 0.347 |
| CACCGAU | -0.0754 |
| UACUCCA | -0.121 |
| GAGGUAA | 0.287 |
| ACAUUGG | 0.0533 |
| UUCCAUC | -0.4 |

For quick reference, copied from above (sample 1):
| Sequence | log2 enrichment |
| --- | --- |
| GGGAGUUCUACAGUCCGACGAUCGCAGGAAGUAAAAACAAAUGGAAAUGCUUCGGAUAGUGGCAGGGGUGGGGGUUCCUAAGGAAAGGGUGGGAUGGGAGUGGGUAAAGAGUUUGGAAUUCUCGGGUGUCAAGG | 1.08 |
| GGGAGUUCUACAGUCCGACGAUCCUCAAGUCCUGUGCUACACAUCGUAUGUACCGAAUCGGGUGGGUGGGGUGGGGAAAGUAUUAUGUUACGCCGUUCGGAUCUGCACUUCCAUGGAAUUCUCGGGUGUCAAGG | 1.36 |
| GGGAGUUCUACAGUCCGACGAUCAGUCCUGUGCUACACAUCGUAUGUACCGAAUCGGGCCCCGGGGCCCCGGGCCCCGGGAAAGUAUUAUGUUACGCCGUUCGGAUCUGCACUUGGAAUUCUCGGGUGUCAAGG | -2.83 |
| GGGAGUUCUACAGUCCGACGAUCUCCCUAUUCCAGUCAUACACGUGGACCUAACUGCACCAGUAGCUUUUCUGAGAAUACUUGCUGAAAAGGAAGUUUUCUGGAAUGGGUAAGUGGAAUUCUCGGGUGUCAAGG | -0.679 |
| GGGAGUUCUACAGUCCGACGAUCAACAGACAACACGCACCCACACAGACACAGAGGGAAGGGGUUGGGAUGGGGACAGGGUGCACAGCAGGGCGGGGUAGGACCCCAGCCCCUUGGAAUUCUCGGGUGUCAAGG | -0.35 |
| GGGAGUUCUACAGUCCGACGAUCAAGUCCUGUGCUACACAUCGUAUGUACCGAAUCGGUGGAAAAAAAGGUUUUUUUGGAAAGUAUUAUGUUACGCCGUUCGGAUCUGCACUUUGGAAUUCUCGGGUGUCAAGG | -2.32 |
| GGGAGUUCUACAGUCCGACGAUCCCUCAAGUCCUGUGCUACACAUCGUAUGUACCGAAUCGGUGGGGUGGGGUGGAAAGUAUUAUGUUACGCCGUUCGGAUCUGCACUUCCAGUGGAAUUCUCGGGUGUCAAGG | -0.339 |
